Measured values of several laboratories.
Auxin response factor: Auxin response factor 1-610 (Capsicum annuum, UniProt A0A1U8F1G4)
WRKY23: WRKY23 (Oryza sativa, UniProt Q7E0X1)
WRKY40 full length assumed: WRKY40 full length assumed (Arabidopsis thaliana, UniProt Q9SAH7)
Sequence of UniProt Q9SAH7 (whole entry, looked up): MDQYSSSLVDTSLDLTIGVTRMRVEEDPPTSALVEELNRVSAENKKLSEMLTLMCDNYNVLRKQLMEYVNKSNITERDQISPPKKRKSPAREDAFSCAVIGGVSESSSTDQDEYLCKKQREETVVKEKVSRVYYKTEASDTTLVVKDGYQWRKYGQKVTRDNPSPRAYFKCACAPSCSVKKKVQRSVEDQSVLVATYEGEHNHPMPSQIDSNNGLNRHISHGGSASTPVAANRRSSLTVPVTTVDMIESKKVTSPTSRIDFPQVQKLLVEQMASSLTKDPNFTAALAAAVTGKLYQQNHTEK
WT1: WT1 323-438 (Homo sapiens, UniProt P19544)
Sequence of UniProt P19544 (whole entry, looked up): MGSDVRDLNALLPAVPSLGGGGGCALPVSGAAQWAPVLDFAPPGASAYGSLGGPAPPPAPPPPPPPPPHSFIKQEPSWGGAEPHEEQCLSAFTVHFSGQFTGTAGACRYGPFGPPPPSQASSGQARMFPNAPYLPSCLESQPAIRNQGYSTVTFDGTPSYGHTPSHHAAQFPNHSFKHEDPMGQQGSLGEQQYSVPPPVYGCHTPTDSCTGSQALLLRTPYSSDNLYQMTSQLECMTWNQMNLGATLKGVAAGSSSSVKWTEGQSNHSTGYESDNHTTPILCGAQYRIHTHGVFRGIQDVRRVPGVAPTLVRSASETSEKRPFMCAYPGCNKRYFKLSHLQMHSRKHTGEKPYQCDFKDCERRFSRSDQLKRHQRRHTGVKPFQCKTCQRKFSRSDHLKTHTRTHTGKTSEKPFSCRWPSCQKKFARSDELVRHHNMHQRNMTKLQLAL
Sequence of UniProt Q5NB82 (whole entry, looked up): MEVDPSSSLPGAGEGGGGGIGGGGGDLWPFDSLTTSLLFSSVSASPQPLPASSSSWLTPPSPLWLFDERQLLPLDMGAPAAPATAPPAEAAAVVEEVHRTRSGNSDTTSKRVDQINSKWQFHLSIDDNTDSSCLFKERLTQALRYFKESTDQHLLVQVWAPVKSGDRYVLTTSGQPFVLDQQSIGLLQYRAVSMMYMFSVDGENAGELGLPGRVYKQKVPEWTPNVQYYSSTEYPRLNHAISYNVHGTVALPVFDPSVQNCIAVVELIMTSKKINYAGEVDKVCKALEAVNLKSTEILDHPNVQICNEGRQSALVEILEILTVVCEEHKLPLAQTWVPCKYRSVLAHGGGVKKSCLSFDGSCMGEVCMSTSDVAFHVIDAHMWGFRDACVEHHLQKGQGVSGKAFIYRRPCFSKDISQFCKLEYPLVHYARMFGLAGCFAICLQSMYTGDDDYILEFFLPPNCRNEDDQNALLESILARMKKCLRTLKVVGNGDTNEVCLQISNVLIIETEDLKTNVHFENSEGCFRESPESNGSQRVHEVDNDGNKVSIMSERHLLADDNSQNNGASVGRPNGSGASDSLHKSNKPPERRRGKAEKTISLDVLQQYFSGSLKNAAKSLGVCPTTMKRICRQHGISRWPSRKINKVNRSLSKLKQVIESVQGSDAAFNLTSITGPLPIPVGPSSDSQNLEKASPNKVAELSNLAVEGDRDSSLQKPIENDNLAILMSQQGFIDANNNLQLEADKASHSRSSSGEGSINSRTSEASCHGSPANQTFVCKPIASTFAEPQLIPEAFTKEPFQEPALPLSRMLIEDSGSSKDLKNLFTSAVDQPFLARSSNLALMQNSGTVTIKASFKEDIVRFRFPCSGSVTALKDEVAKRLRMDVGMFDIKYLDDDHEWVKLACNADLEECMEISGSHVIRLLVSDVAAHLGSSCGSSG
Sequence of UniProt Q9Y6M1 (whole entry, looked up): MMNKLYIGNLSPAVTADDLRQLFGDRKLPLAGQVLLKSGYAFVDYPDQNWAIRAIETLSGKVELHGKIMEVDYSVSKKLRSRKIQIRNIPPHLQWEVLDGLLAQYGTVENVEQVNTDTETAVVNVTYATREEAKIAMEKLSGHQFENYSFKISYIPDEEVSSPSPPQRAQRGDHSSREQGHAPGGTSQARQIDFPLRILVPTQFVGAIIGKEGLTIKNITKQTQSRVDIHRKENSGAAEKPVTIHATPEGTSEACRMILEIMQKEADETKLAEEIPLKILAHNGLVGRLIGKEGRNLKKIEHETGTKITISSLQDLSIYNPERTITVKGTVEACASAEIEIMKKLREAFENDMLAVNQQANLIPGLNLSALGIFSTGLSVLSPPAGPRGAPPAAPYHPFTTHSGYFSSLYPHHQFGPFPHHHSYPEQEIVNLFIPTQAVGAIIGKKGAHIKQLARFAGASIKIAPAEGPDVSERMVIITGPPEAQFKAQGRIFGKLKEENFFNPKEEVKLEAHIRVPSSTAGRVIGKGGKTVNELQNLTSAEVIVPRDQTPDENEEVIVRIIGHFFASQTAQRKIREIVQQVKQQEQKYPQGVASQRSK
Sequence of UniProt Q7XI96 (whole entry, looked up): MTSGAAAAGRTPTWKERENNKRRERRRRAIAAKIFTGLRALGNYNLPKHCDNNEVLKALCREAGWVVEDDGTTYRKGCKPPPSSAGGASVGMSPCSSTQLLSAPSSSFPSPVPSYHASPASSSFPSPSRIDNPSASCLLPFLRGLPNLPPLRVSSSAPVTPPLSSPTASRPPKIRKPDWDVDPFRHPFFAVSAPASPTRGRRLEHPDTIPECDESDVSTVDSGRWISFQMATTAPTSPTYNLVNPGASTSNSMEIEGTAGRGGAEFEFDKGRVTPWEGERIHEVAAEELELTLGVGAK
Sequence of UniProt P26368 (whole entry, looked up): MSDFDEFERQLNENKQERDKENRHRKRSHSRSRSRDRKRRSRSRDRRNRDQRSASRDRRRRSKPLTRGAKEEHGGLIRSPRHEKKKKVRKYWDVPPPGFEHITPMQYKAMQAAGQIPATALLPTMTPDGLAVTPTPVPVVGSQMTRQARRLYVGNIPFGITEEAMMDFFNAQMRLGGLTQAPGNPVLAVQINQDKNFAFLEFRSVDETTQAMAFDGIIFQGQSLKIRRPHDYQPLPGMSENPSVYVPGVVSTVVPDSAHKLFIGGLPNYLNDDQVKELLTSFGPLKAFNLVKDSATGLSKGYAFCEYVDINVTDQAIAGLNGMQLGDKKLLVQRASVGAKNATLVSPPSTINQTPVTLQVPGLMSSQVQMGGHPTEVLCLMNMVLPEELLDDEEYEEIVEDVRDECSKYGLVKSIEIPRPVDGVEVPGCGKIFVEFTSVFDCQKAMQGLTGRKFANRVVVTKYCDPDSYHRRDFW
Sequence of UniProt Q15020 (whole entry, looked up): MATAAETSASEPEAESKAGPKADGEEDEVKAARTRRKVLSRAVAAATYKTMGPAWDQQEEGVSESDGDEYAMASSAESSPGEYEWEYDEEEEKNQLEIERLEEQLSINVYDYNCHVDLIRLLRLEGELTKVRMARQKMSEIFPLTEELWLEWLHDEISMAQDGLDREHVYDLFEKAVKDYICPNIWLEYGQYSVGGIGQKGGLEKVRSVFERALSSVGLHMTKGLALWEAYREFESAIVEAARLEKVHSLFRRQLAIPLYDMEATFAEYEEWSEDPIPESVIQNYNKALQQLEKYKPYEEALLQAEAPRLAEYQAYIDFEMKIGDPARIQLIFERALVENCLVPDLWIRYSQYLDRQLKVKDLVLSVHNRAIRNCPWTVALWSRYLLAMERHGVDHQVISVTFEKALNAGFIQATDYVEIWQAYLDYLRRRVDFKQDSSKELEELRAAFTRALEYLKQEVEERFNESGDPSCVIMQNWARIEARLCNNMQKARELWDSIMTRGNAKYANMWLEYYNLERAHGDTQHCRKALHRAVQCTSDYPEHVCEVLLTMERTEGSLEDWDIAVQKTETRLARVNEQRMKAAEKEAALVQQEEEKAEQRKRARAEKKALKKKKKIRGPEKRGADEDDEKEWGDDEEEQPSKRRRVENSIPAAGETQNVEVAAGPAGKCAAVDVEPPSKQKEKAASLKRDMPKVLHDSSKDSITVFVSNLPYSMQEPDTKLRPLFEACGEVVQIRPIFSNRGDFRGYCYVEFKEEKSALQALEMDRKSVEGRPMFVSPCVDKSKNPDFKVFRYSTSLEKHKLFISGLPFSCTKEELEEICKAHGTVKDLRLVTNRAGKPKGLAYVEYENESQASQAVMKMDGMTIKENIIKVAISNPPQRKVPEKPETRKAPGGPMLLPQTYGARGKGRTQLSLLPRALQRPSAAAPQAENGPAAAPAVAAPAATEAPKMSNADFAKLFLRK
Sequence of UniProt O24606 (whole entry, looked up): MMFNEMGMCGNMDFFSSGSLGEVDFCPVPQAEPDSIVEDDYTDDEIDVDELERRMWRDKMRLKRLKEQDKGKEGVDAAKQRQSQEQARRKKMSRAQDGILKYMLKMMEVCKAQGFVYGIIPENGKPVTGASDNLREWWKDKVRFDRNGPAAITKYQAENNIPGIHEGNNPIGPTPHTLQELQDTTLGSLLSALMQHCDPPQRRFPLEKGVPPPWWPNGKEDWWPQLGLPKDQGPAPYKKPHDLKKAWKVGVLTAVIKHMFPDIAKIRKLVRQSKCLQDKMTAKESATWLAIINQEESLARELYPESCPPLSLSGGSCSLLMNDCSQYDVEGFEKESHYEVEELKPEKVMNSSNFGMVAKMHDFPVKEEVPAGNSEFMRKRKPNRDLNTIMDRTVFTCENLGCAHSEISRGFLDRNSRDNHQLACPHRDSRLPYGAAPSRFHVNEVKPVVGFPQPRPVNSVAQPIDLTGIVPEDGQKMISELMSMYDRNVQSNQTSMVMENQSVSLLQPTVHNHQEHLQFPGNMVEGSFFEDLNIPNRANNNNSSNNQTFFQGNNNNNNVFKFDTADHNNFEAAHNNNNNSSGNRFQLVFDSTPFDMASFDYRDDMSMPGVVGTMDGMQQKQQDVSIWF
Sequence of UniProt Q43349 (whole entry, looked up): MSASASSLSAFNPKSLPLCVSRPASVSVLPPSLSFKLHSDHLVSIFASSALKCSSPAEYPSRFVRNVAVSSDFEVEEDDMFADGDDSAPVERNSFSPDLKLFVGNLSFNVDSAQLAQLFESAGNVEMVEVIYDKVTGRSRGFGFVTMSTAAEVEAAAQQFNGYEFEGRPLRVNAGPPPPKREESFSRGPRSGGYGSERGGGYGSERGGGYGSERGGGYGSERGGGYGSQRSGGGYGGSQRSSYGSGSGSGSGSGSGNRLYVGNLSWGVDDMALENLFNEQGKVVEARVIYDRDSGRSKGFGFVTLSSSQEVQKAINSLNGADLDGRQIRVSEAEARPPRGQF

`DNA 1 CTCGAGGAATTCGGATCCGAATTCCTCGAGGCGCTCC / DNA 2 CTCGAGGAATTCGGATCCGAATTCCTCGAGGCGCTCC (dsDNA; 3' 7-nt overhangs, palindromic)` — result for binding: “no binding” (sduA 171-380 (Bacillus cereus, UniProt B7HFR2); fluorescence polarization; double-stranded DNA; with: Mg2+ 5 mM).
`CAGCGTCACATGACGGGAATTTTCACGTCTTTTCAGCCCT (dsDNA)`: binding “binds” (Hsf17 full length assumed (Zea mays, UniProt A0A5J6CYG6); competition; double-stranded DNA, one strand shown).
`GATCATGCAGGACAGTCGGATCGCAACCTGATTTACTGTGTCATATAGTACGTGATTCAG (ssDNA)`: binding “binds” (Dda helicase 1-439 (bacteriophage T4, UniProt P32270); EMSA; single-stranded DNA; no ATP, with: Mg2+ 10 mM).
For `UCAUCCCAGCUGGUGUAAUAAUGAAUUGUUUAAAAAACAGCUCAUAAUUGAUGCCAAAUUAAAGCAC (ssRNA; single strand)`, binding read “binds” (IGF2BP2 1-599 (Homo sapiens, UniProt Q9Y6M1); mass photometry; RNA).
`AACCTCTTTTGTCATTTTGTGTCATAA (dsDNA)`: binding “binds” (NLP3 full length assumed (Oryza sativa, UniProt Q5NB82); EMSA; double-stranded DNA, one strand shown).
Under binding, `TTTTTTTTTTTTTTTTTTTTTTTTTTTTTTTTTTTTTTTTTTTTTTTTTTTTTTTTTTTTTTTTT (ssDNA)` is recorded as “binds” (yoaA/holC/ssb 1-636; 1-147; 2-178 (Escherichia coli); EMSA; single-stranded DNA; with: ATPγS).
`TATGATTATTTTAAAAATACGTATTAATT (dsDNA)`: binding “binds” (Uncharacterized protein 1-360 (Prunus persica, UniProt M5W9R3); EMSA; double-stranded DNA, one strand shown).
For `GGTGAAGATCTCAATTACACAAAAATGAATGCTTTAAAAGGATCATTTAA (dsDNA)`, binding read “binds” (GATA15 full length assumed (Oryza sativa, UniProt Q6L5E5); EMSA; double-stranded DNA, one strand shown).
For `GGGGTTCGACAGAACCTA (dsDNA)`, binding read “binds” (Auxin response factor; MST; double-stranded DNA, one strand shown).
`TTATTUUUAAGGATTTATTTATTTA (ssDNA; 5-bromo-dU position 6, dU 7-8)` — result for binding: “binds” (APOBEC3G 1-384 (Homo sapiens, UniProt Q9HC16); UV cross-linking, MS, SDS-PAGE; single-stranded DNA).
`CTCGTCGTGCGCCAACTGCGAGCGAGGGAG (dsDNA)`: binding “binds” (MYB2 full length assumed (Oryza sativa, UniProt Q10MB4); EMSA; double-stranded DNA, one strand shown).
`TAAATTGTAAGCGTTAATATTTTGTTAAAATTCGCGTTAAATTTTTGTTAAATCAGCTCATTTTTTAACCAATAGGCCGAAATCGGCAAAATCCCTTATA (ssDNA)`: binding “binds” (protein full length assumed (Mycosarcoma maydis, UniProt Q8NJ74); EMSA; single-stranded DNA).
`TCAGTTGGCAGGTTGGCAGTAATTTTGACGAAATTCGTTGAAGAATGATA (dsDNA)`: binding “binds” (WRKY23; EMSA; double-stranded DNA, one strand shown).
`CCTGCGGTATTGACACTTGAGGGGCGCGACTACTGACAGATGAGGGGCGCGATCCTTGACACTTGAGGGGCAGAGTGATGACAGATGAGGGGCGCACCTATTGACATTTGAGGGGCTGTCCACAGGCAG (dsDNA)`: binding “binds” (trfA 98-382 R156E/G254D/S267L (Escherichia coli, UniProt P07676); SPR; double-stranded DNA, one strand shown).
For `TTATGGGCGTGGGCCCTACGCGTGTGCGCACGAGGAGGTGAGGTGA (dsDNA)`, binding read “binds” (BZR1 1-298 (Oryza sativa, UniProt Q7XI96); EMSA; double-stranded DNA, one strand shown).
`DNA 1 GAGCTCGGTACCCGTGGATCCTCTAG / DNA 2 TCTAGAGGATCCACGGGTACCGAGCT (dsDNA; 5' 1 nt overhangs)`: binding “binds” (protein full length assumed (Bacillus pumilus, UniProt A3FMN7); EMSA; double-stranded DNA).
`TTTTTT (ssDNA)`: binding “binds” (CP29A 255-334 (Arabidopsis thaliana, UniProt Q43349); NMR titration; single-stranded DNA).
`GAGGGCTATAGATGCTCTAACAGACTCAGTTTAGGCCCGC (dsDNA)` — result for binding: “binds” (Transcription factor 1-552 (Triticum aestivum, UniProt G9DR80); EMSA; double-stranded DNA, one strand shown).
`GGGGTTCCCCCCAACCTA (dsDNA)`: binding “no binding” (Auxin response factor; EMSA; double-stranded DNA, one strand shown).
`GATTTTATTTCTTTTATGTTTATGTGTCATCTTGAAACTACCACCGAATGGC (dsDNA)`: binding “binds” (O2 full length assumed (Zea mays, UniProt P12959); EMSA; double-stranded DNA, one strand shown).
For `AGTACAAGAGTACAGCTGAAAGCCATAGTACAC (dsDNA; blunt)`, binding read “binds” (SPL9 full length assumed (Oryza sativa, UniProt Q6I576); EMSA; double-stranded DNA, one strand shown).
`AGAGACTATTGACCAGTGAGTC (dsDNA (Saccharum))` — result for binding: “binds” (WRKY2 full length assumed (Saccharum hybrid, UniProt A0A5J6RV71); EMSA; double-stranded DNA, one strand shown).
`AGCGUGCCGUGCAACAACAUUACAAUUUACAAUCCACCAUGG (ssRNA)` — result for binding: “no binding” (ECD 150-438 (Homo sapiens, UniProt O95905); EMSA; RNA).
For `GACAAAAGATGTTGACCTTCACGCCTCTCTTCTTAGACCCCACGCGCCACACTCTCACGGTGAGAACATAAATATCAATCTCTCTTTTACCGCCTCCTACCCATTTATCTCTCTCTTTCTCAAAACCTTTCAGTCAAAATTCTCC (dsDNA)`, binding read “binds” (WRKY40 full length assumed; EMSA; double-stranded DNA, one strand shown).
`TTTTTTTTTTTTTTTTTTTT (ssDNA)` — result for binding: “binds” (priA 211-732 (Escherichia coli, UniProt P17888); UV photo-cross-linking; single-stranded DNA; no nucleotide, tryptic fragment).
`GAGCTGCAAGTGGATATTTGGACCTCTTTGAGGTCTTCGTTGGAAACGGGATTTCCTCATATAATGTTACACAGAAGAATTCTCAGTAACTTATTTGTGGTGTGTGTATTCAACTCACAGAGGTGAACCTTCCTTCAGAAAGAGCAGATTTGAAACACTCTTTTTGTACCC (dsDNA)` — result for binding: “no binding” (CENP-I/CENP-H/CENP-K 57-281 / 1-247 / 1-269 K243A/K263A/K270A/R279A/N280A (Homo sapiens); EMSA; double-stranded DNA, one strand shown).
Under binding, `AGCGTAGCACTGGGCT (dsDNA)` is recorded as “no binding” (protein full length assumed K369A (Bacillus pumilus, UniProt A3FMN7); EMSA; double-stranded DNA, one strand shown).
`ACCAAGCGGGATGCGGAGCCGCCGCCGCCGCCG (dsDNA; blunt)` — result for binding: “binds” (WT1; EMSA; double-stranded DNA, one strand shown).
`CTGTTTTATTCACTTGATCTTCTTAATCTTTTAAATTGCCTATCTTTTGCTATGTTTTTGTTACAATTTAAATTGACAAGTACTTAGAAAAACAAACAAAAATGATATCTCTGTTCCATCTTAGATTATTCGTTTCTTATTTCTCTTAATATATATTTTTGAACACGCTTATTTCTCTTATATATGTTGCAATATTC (dsDNA)` — result for binding: “binds” (WRKY60 full length assumed (Arabidopsis thaliana, UniProt Q9SK33); EMSA; double-stranded DNA, one strand shown).
For `ACCAAGCGGGATGCGGAGCCGCCGCCGCCGTCG (dsDNA; blunt)`, binding read “no binding” (WT1; EMSA; double-stranded DNA, one strand shown).
For `TAAGAGAATATTGGGAAATTGTCTACCCAGATGAACATCCCTCCCAAAATTGCGTAA (dsDNA)`, binding read “no binding” (EIN3 1-628 (Arabidopsis thaliana, UniProt O24606); EMSA; double-stranded DNA, one strand shown).
`AUACAG (ssRNA)`: binding “no binding” (SART3 697-786 (Homo sapiens, UniProt Q15020); ITC; RNA).
`DNA 1 ATACCAGCTTATTCAATT / DNA 2 ATTGCTCCTCAGCAATTGAATAAGCT (dsDNA; 13 bp duplex, 5' overhangs, 5'-NH2)`: binding “no binding” (MUC1 24-1097 (Homo sapiens, UniProt P15941); magnetic bead strand displacement; double-stranded DNA).
Under binding, `CCAATGTGTAACAAGTAACTTATGACAACACAAATTTCTTCTTTGGTAGAAAACAAACGGGTAAGTAAAAAGAAAAGAAAAAAAGAAGTGAGTGAGAAGAGAGTGTAAGTATAAATAAAAGAAGCACCGCCCTAATCGACCATTCACAACGATGACATTCAAACACTCTTCAG (dsDNA)` is recorded as “binds” (WRKY40 full length assumed; EMSA; double-stranded DNA, one strand shown).
`TTACTCAACCGTAACCGATTTTGCCAGGTTACGCGG (dsDNA)` — result for binding: “binds” (TnsD/uL29/ACP 1-508; 1-63; 1-78 (Escherichia coli); EMSA; double-stranded DNA, one strand shown).
`ACCAAGCGGGATGTGGAGCCGCCGCCGCCGCCG (dsDNA; blunt)`: binding “no binding” (WT1; EMSA; double-stranded DNA, one strand shown).
For `TTGGGCGAGCCGACCTGGGTGTGGGGGAATTGATTG (dsDNA)`, binding read “no binding” (NAC067 1-276 (Oryza sativa, UniProt Q7EZT1); competition; double-stranded DNA, one strand shown).
`AAACAAATCTCAAAATGAAGGCAAAG (dsDNA)`: binding “binds” (NAC083 (Arabidopsis thaliana, UniProt Q9FY93); EMSA; double-stranded DNA, one strand shown).
`UUCACAGUU (ssRNA)` gave a Kd of 1130 nM (U2AF2 148-342 (Homo sapiens, UniProt P26368); sequencing of bound RNA; RNA; motif only).
Under binding, `AAACTTCCGTGGAGAACC (dsDNA)` is recorded as “binds” (PDR1 1-207 (Saccharomyces cerevisiae, UniProt P12383); competition; double-stranded DNA, one strand shown).
`TAGGCGTGGGCCATGTGACAGAATGAAAGAACTCA (dsDNA)` — result for binding: “binds” (WRKY70 1-294 (Arabidopsis thaliana, UniProt Q9LY00); EMSA; double-stranded DNA, one strand shown).
`AACUACAGGACUAUUUGACAUCAUAAUAAA (ssRNA)`: binding “binds” (IGF2BP1 1-577 (Homo sapiens, UniProt Q9NZI8); pull-down; RNA).
For `GGGCCGTCCAGAAGCAAAAAAAAAAAACTTCTCCTCCT (dsDNA)`, binding read “no binding” (HSFA4D full length assumed (Oryza sativa, UniProt Q93VB5); EMSA; double-stranded DNA, one strand shown).
Under binding, `GGAATTGGTCAGTGCTAATCCTTGGTCAGTGCAGCTA (dsDNA (Caenorhabditis elegans); blunt)` is recorded as “binds” (him-8 full length assumed (Caenorhabditis elegans, UniProt O18068); streptavidin pull-down, western blot; double-stranded DNA, one strand shown; 1 µM).
For `AAAGAAAAAGGGATCGAACTTTTGACATTCGATCCCTTTTTCTGTAATCTGTTTCGTGCGTTCTTTGCTAAGATACAGACCCTAGACAAGTCATATCTTAGCAAAGGGTAGCTAGTAATGCAAGAGATTGCGAAGCGTCCCTACTACCAAAAAACCATTCAACGACGTAAACAGACAAACGCAAACCTTAAATTAGACG (dsDNA)`, binding read “no binding” (ihfA/ihfB 1-98; 1-95 (Aggregatibacter actinomycetemcomitans); EMSA; double-stranded DNA, one strand shown).
For `ACGAAATATTTATTTTATTTATTTTTTGACAACGAATTTAATTCGGTCAC (dsDNA)`, binding read “binds” (WRKY23; EMSA; double-stranded DNA, one strand shown).
`GCAGCUCGGGGAUCAUGGCCCACUGAACCCCCAAGCGC (structured RNA)`: binding “binds” (NFKB1 41-249 (Homo sapiens, UniProt P19838); NMR; folded RNA; NaCl 50 mM).
For `CGATGAGAATGGTTCCAAGGCCATGTACTT (dsDNA)`, binding read “no binding” (WOX11 full length assumed (Oryza sativa, UniProt Q0D3I7); EMSA; double-stranded DNA, one strand shown).

For quick reference, copied from above:
For `ACCAAGCGGGATGCGGAGCCGCCGCCGCCGTCG (dsDNA; blunt)`, binding read “no binding” (WT1; EMSA; double-stranded DNA, one strand shown).
`AACCTCTTTTGTCATTTTGTGTCATAA (dsDNA)`: binding “binds” (NLP3 full length assumed (Oryza sativa, UniProt Q5NB82); EMSA; double-stranded DNA, one strand shown).
`TTATTUUUAAGGATTTATTTATTTA (ssDNA; 5-bromo-dU position 6, dU 7-8)` — result for binding: “binds” (APOBEC3G 1-384 (Homo sapiens, UniProt Q9HC16); UV cross-linking, MS, SDS-PAGE; single-stranded DNA).
For `GGTGAAGATCTCAATTACACAAAAATGAATGCTTTAAAAGGATCATTTAA (dsDNA)`, binding read “binds” (GATA15 full length assumed (Oryza sativa, UniProt Q6L5E5); EMSA; double-stranded DNA, one strand shown).
